Assay results collected from several papers.
Lines come from different studies, so protocols differ. Values joined by “and” are separate records of one study, mostly repeats; a detail may differ. ± gives the spread as reported.

CC(C)C[C@H](NC(=O)[C@H](Cc1ccc(O)cc1)NC(=O)[C@@H](CCCNC(=N)N)NC(=O)[C@@H](CO)NC(=O)[C@H](Cc1ccccc1)NC(=O)[C@H](CC1CCCCC1)NC(=O)[C@H](CC(=O)O)NC(=O)CN1CCN(CC(=O)O)CCN(CC(=O)O)CCN(CC(=O)O)CC1)C(=O)N[C@@H](Cc1c[nH]c2ccccc12)C(=O)N[C@@H](CO)C(=O)O [copper-64 labelled] — activity concentration (human, adrenal; concentration not given, 1 h): 3960 Bq/mL and 1690 Bq/mL and 3890 Bq/mL and 1800 Bq/mL and 2560 Bq/mL and 2950 Bq/mL
nucleophosmin S112E — beta-strand content (far-UV CD, CDSSTR; Tris buffer, NaCl; pH 7.5, room temperature): 17%
C=C1CC[C@H](OCCCNC(=O)CCOCCOCCOCCOCCOCCOCCOCCOCCOCCOCCOCCOCCOCCOCCOCCOCCOCCOCCOCCOCCOCCOCCOCCOCCOCCOCCOCCOCCOCCOCCOCCOCCOCCOCCOCCOCCNC(=O)CCN2C(=O)CC(SC[C@H](NC(=O)[C@H](Cc3ccccc3)NC(=O)[C@H](CC(N)=O)NC(=O)[C@H](Cc3c[nH]cn3)NC(=O)[C@@H](NC(=O)[C@H](CC(=O)O)NC(=O)[C@H](CCC(N)=O)NC(=O)[C@H](CC(C)C)NC(=O)[C@H](CCCCN)NC(=O)[C@H](CCCCN)NC(=O)[C@H](CCCNC(=N)N)NC(=O)[C@H](CC(C)C)NC(=O)[C@H](Cc3c[nH]c4ccccc34)NC(=O)[C@H](CCC(=O)O)NC(=O)[C@@H](NC(=O)[C@H](CCCNC(=N)N)NC(=O)[C@H](CCC(=O)O)NC(=O)[C@H](CCSC)NC(=O)[C@H](CO)NC(=O)[C@H](CC(N)=O)NC(=O)[C@H](CC(C)C)NC(=O)[C@H](Cc3c[nH]cn3)NC(=O)[C@H](CCCCN)NC(=O)CNC(=O)[C@H](CC(C)C)NC(=O)[C@H](CC(N)=O)NC(=O)[C@H](Cc3c[nH]cn3)NC(=O)[C@H](CCSC)NC(=O)[C@H](CC(C)C)NC(=O)[C@H](CCC(N)=O)NC(=O)[C@@H](NC(=O)[C@H](CCC(=O)O)NC(=O)[C@H](CO)NC(=O)[C@@H](NC(=O)[C@@H](N)CO)C(C)C)[C@@H](C)CC)C(C)C)C(C)C)C(=O)O)C2=O)C/C1=C/C=C1\CCC[C@]2(C)[C@@H]([C@H](C)CCCC(C)(C)O)CC[C@@H]12 (some centres unmarked) — bioavailability (male cynomolgus monkey, plasma; subcutaneous, 0.07 mg/kg, single dose): 53.5%
CCCC[C@H](NC(=O)COCCOCCNC(=O)CN1CCN(CC(=O)O)CCN(CC(=O)O)CC1)C(=O)N[C@H]1CC(=O)NCCCC[C@@H](C(N)=O)NC(=O)[C@H](Cc2c[nH]c3ccccc23)NC(=O)[C@H](CCCNC(=N)N)NC(=O)[C@@H](Cc2ccccc2)NC(=O)[C@H](Cc2c[nH]cn2)NC1=O [technetium-99m labelled] — tissue uptake (C57 mouse, tumor; intravenous, 0.037 MBq, 0.5 h): 13.6 ± 1.13 %ID/g
Cc1cc(-c2ccc(NC(=O)CC[C@H](NC(=O)CN3CCN(CC(=O)O)CCN(CC(=O)O)CCN(CC(=O)O)CC3)C(=O)NCC(=O)N[C@@H](CC(N)=O)C(=O)N[C@H](C(=O)N[C@H](C(=O)N[C@@H](CCCNC(=N)N)C(=O)N[C@@H](CCC(N)=O)C(=O)O)C(C)C)C(C)C)c(C)c2)ccc1/N=N/c1ccc2c(S(=O)(=O)O)cc(S(=O)(=O)O)c(N)c2c1O [copper-64 labelled] — tissue uptake (nude mouse, 143B xenograft, tumour; intravenous, 48 h): 6.7 ± 2.9 %ID/g
CC(C)C[C@H](NC(=O)[C@@H](CCCCNC(=O)[C@@H](Cc1ccccc1)NC(=O)CCCCCNC(=O)CN1CCN(CC(=O)O)CCN(CC(=O)O)CCN(CC(=O)O)CC1)NC(=O)[C@H](Cc1ccc(O)cc1)NC(=O)[C@H](CO)NC(=O)[C@H](Cc1c[nH]c2ccccc12)NC(=O)[C@H](Cc1c[nH]cn1)NC(=O)[C@@H]1CCC(=O)N1)C(=O)N[C@@H](CCCNC(=N)N)C(=O)N1CCC[C@H]1C(=O)NCC(N)=O [indium-111 labelled] — tissue uptake (athymic nude mouse, female, pituitary; intravenous, 0.037 MBq, 1 h): 33.7 ± 4.53 %ID/g
C[C@@H](O)[C@@H]1NC(=O)[C@H](CCCCN)NC(=O)[C@@H](Cc2c[nH]c3ccccc23)NC(=O)[C@H](Cc2ccc(O)cc2)NC(=O)[C@@H](NC(=O)[C@@H](Cc2ccccc2)NC(=O)CN2CCN(CC(=O)O)CCN(CC(=O)O)CCN(CC(=O)O)CC2)CSSC[C@@H](C(=O)N[C@H](CO)[C@@H](C)O)NC1=O [gallium-67 labelled] — tissue uptake (gamma counting; ICR mice, male, kidney; iv, 11 kBq/mouse, 1 h): 8.15 ± 2.43 %ID/g
CC(C)C[C@H](NC(=O)[C@@H](CCCCNC(=O)CCCCCCCCCCNC(=O)CN1CCN(CC(=O)O)CCN(CC(=O)O)CCN(CC(=O)O)CC1)NC(=O)[C@H](Cc1ccc(O)cc1)NC(=O)[C@H](CO)NC(=O)[C@H](Cc1c[nH]c2ccccc12)NC(=O)[C@H](Cc1cnc[nH]1)NC(=O)[C@@H]1CCC(=O)N1)C(=O)N[C@@H](CCCN=C(N)N)C(=O)N1CCC[C@H]1C(=O)NCC(N)=O [indium-111 labelled] — tissue uptake (athymic nude mouse, female, whole blood; intravenous, 0.037 MBq, 0.5 h): 5.81 ± 0.65 %ID/g

A few entries again:
nucleophosmin S112E — beta-strand content (far-UV CD, CDSSTR; Tris buffer, NaCl; pH 7.5, room temperature): 17%
